Experimental data gathered from unrelated publications.
Several values in a cell are separate wells, animals, samples, runs or records. ± gives the spread as reported. Converted amounts (≈) assume the structure as drawn.
Sequence of UniProt P36896 (whole entry, looked up): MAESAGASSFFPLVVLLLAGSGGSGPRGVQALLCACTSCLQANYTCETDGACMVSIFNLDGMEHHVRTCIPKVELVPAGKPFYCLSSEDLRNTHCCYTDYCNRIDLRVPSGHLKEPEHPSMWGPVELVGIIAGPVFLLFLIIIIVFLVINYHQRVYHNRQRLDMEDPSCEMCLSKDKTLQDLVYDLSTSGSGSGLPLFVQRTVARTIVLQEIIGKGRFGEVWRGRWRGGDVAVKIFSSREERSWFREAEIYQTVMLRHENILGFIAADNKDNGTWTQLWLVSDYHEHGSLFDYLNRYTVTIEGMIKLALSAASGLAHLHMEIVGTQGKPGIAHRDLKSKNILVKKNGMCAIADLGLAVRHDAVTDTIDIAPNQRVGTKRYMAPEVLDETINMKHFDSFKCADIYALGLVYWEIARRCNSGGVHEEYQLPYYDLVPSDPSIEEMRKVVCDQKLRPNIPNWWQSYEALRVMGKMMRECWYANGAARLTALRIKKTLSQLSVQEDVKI

| SMILES | tested on | test | test system | conditions | how to read | endpoint | value |
| --- | --- | --- | --- | --- | --- | --- | --- |
| C=CC(=O)Nc1cc(Nc2nccc(-c3cn(C)c4ccccc34)n2)c(OC)cc1N(C)CCNC | – | storage stability | human dried blood spot samples | 30 d, -80 °C, MQC level | relative to: nominal concentration | percentage recovery | 49% |
| COc1cccc(OC)c1-c1cc(C(=O)NC2(C(=O)O)C3CC4CC(C3)CC2C4)nn1-c1ccc(C(=O)N(C)CCCN(C)CCCN(C)C(=O)[C@H](CCCCNC(=O)[C@H](CC(C)C)NC(=O)C2OC2C(=O)O)NC(=O)CN2CCN(CC(=O)[O-])CCN(CC(=O)[O-])CCN(CC(=O)[O-])CC2)cc1C(C)C.[177Lu+3] (mixture of isomers) | – | – | mouse, HT-29 xenograft | 24 h post injection, biodistribution | relative to: tumour over blood uptake | tumour-to-blood ratio | 23.9 |
| Cc1ncsc1-c1ccc(C(C)NC(=O)C2CC(O)CN2C(=O)C(NC(=O)CCCCCCCCCCN2CCCC(Nc3ncc(Cl)c(Nc4ccccc4S(=O)(=O)C(C)C)n3)C2)C(C)(C)C)cc1 (stereo not drawn) | 22Rv1 | RNA-seq, refers to: RAP2B mRNA | – | concentration not given | relative to: DMSO | log2 fold change | -1.38 |
| C=Cc1ccccc1[B-]12OC(=O)C(c3ccccc3)=N[N+]1=C(CC)c1ccc(N(CC)CC)cc1O2 (stereo not drawn) | – | – | toluene | – | – | fluorescence lifetime | 2.58 ns |
| C=CC(=O)Nc1cc(Nc2nccc(-c3c[nH]c4ccccc34)n2)c(OC)cc1N(C)CCN(C)C | – | storage stability | human plasma | 24 h, -80 °C, high QC level | – | recovery | 96.1% |
| O=C(Nc1cnccc1-c1ccc([18F])nc1)c1ccnc(NC(=O)C2CC2)c1 | – | – | FVB/NJ mice (both sexes), small intestine | intravenous, dose not given, 120 min, together with: tariquidar 15 mg/kg i.v. pre-dose | – | SUV | 2.1 |
| COc1ccc(CN2CCC(F)(F)C(COc3ccc(F)c(C)c3)C2)cc1F (stereo not drawn) | – | equilibrium dialysis | human plasma | – | – | fu | < 0.0003 |
| Cc1nn(-c2nc3c(F)cc(F)cc3s2)c(O)c1C(c1ccc(C(F)(F)F)cc1)c1c(C)nn(-c2nc3c(F)cc(F)cc3s2)c1O | – | – | ICR mouse, plasma | oral, 50 mg/kg | – | AUC extrapolated observed | 0.662% and 6.42% and 0.257% |
| O=C(N1CCCCC1)C12CC(c3ccccc3)(C1)C2(Br)Br | – | metabolic stability | human, liver microsomes | 2 µM, 15 min, pH 7.4 | – | compound remaining | 56% |
| O=C1c2sc(-c3ccc(N4CCC(CO)CC4)nc3F)nc2CCN1c1cccnc1 | – | LC-MS | cynomolgus monkey hepatocytes | 5 µM, 60 min | – | parent share of total peak area | 57.3% |
| COCC1CN(C2CCN(c3cc(OC)c(Nc4ncc(Br)c(Nc5ccc6c(c5P(C)(C)=O)OCCO6)n4)cc3C)CC2)C1 | – | – | EGFR-mutant NSCLC patients, plasma | oral, 10 mg single dose, geometric mean | – | t1/2 | 26.7 h |
| COc1cccc(OC)c1-c1cc(C(=O)NC2(C(=O)O)C3CC4CC(C3)CC2C4)nn1-c1ccc(C(=O)N(C)CCOCCN(C)C(=O)[C@H](CCCCNC(=O)[C@H](CC(C)C)NC(=O)C2OC2C(=O)O)NC(=O)CN2CCN(CC(=O)[O-])CCN(CC(=O)[O-])CCN(CC(=O)[O-])CC2)cc1C(C)C.[177Lu+3] (mixture of isomers) | – | – | mouse, HT-29 xenograft | 24 h post injection, biodistribution | relative to: tumour over blood uptake | tumour-to-blood ratio | 6.84 |
| O=C(NCc1cccc(Cl)c1)c1ccc([C@H]2[C@@H](F)[C@@H](F)C[C@@H](F)[C@H]2F)cc1 | – | liver microsome stability | dog liver microsomes | 1 µM | – | hepatic clearance | 15 mL/min/kg |
| COC(=O)[C@@]1(C)C=C(C(=O)Nc2cccc(C(=O)Nc3ccc(Nc4nccc(-c5cccnc5)n4)c(C)c3)c2)C(=O)CC1 | – | – | Wistar rat male, blood plasma | 1 µM, 15 min | – | compound remaining | 72.8% |
| CN1CCC(c2ccc(-c3ccc([C@H]4[C@@H](F)[C@@H](F)C[C@@H](F)[C@H]4F)cc3)cn2)CC1 | – | hepatocyte stability | cryopreserved mouse hepatocytes | 1 µM | – | hepatic clearance | 45 mL/min/kg |
| CCC1CNC(CC)CN(C(C(=O)[O-])c2ccc(C(=O)[O-])cc2)C(CC)CN(CC(=O)[O-])C(CC)CN1.[Mn+2] (stereo not drawn) | – | ICP-MS | BALB/c mouse, intestine | intravenous, 0.05 mmol/kg, 5 min, without anaesthesia | – | Mn content | 19.7 ± 3.81 µg/g |
| O=C(CN1CCCCC1)Nc1ccc(C2CCCCC2)cc1 | – | – | cynomolgus liver microsomes | 1 µM | – | hepatic clearance | 39 mL/min/kg |
| COc1cccc(OC)c1-c1cc(C(=O)NC2(C(=O)O)C3CC4CC(C3)CC2C4)nn1-c1ccc(C(=O)NCCNC(=O)[C@H](CCCCNC(=O)[C@H](CC(C)C)NC(=O)C2OC2C(=O)O)NC(=O)CN2CCN(CC(=O)[O-])CCN(CC(=O)[O-])CCN(CC(=O)[O-])CC2)cc1C(C)C.[177Lu+3] (mixture of isomers) | – | – | mouse, HT-29 xenograft | 24 h post injection, biodistribution | relative to: tumour over bone uptake | tumour-to-bone ratio | 24.1 |
| C=C1C[C@]2(C(=O)OC)C=C(C(=O)Nc3cccc(C(=O)Nc4ccc(Nc5nccc(-c6cccnc6)n5)c(C)c4)c3)C(=O)[C@H]1C2 | – | – | Wistar rat, male, plasma | 10 µM, 30 min | – | compound remaining | 1.03% and 1.85% |
| CC(C)C[C@H](NC(=O)[C@H](CCCN)NC(=O)CNC(=O)[C@@H](NC(=O)[C@H](C)NC(=O)[C@@H]1CSCSC[C@H](NC(=O)CC[C@H](N)C(=O)O)C(=O)N[C@@H](CC(N)=O)C(=O)N[C@@H]([C@@H](C)O)C(=O)N[C@@H](C)C(=O)N[C@@H]([C@@H](C)O)C(=O)N1)[C@@H](C)O)C(=O)N[C@@H](C)C(=O)N[C@@H](CCC(=O)O)C(=O)N[C@@](C)(Cc1ccccc1)C(=O)N[C@@H](CC(C)C)C(=O)N[C@H](C(=O)N[C@@H](CCCNC(=N)N)C(=O)N[C@@H](CO)C(=O)N[C@@H](CO)C(=O)N[C@@H](CC(N)=O)C(=O)N(C)[C@@H](CC(N)=O)C(=O)N[C@@H](Cc1ccccc1)C(=O)NCC(=O)N1CCC[C@H]1C(=O)N[C@@H](CCCCNC(=O)CC[C@H](NC(=O)CC[C@H](NC(=O)CCCCCCCCCCCCCCCCCCC(=O)O)C(=O)O)C(=O)O)C(=O)N[C@@H](CC(C)C)C(=O)N1CCC[C@H]1C(=O)N1CCC[C@H]1C(=O)N[C@H](C(=O)N[C@@H](CCC(=O)O)C(=O)N[C@H](C(=O)NCC(=O)N[C@@H](CO)C(=O)N[C@@H](CC(N)=O)C(=O)N[C@H](C(=O)N[C@@H](Cc1ccc(O)cc1)C(N)=O)[C@@H](C)O)C(C)C)[C@@H](C)O)C(C)C | – | – | human, plasma | subcutaneous, 0.4 mg, single dose, healthy volunteers | – | half-life | 352 h |

| SMILES | tested on | test | test system | conditions | how to read | endpoint | value |
| --- | --- | --- | --- | --- | --- | --- | --- |
| CCC(CC)n1c(Cc2ccco2)nc2cc(C(=O)N[C@@H](CC(=O)O)c3ccccc3)ccc21 | – | – | Sprague-Dawley rat, male, plasma | ip, 10 mg/kg | – | volume of distribution (Vz) | 12.9 ± 1.33 L/kg |
| OC1(C(F)(F)F)CCN(c2nc(Nc3ccnc(C(F)(F)F)c3)nc(-c3cccc(C(F)(F)F)n3)n2)C1 (stereo not drawn) | – | – | Sprague-Dawley rat, both sexes, plasma | oral gavage, 20 mg/kg | – | AUC(0-24 h) | 22300 ± 3230 ng·h/mL |
| Nc1ncc(-c2ccc(C3CCCCC3)cc2)cn1 | – | liver microsome stability | human liver microsomes | 1 µM, without NADPH | – | hepatic clearance | 4.3 mL/min/kg |
| CC(C)OCCOCc1ccc(OCC(O)CN(N=O)C(C)C)cc1 (stereo not drawn) | – | duplex sequencing | NMRI mouse, bone marrow | concentration not given | – | C>T mutation frequency | increased |
| C/C(N)=N/C(=N\S(=O)(=O)c1ccc(C(F)(F)F)cc1)N1C[C@H](c2ccccc2)C(c2ccc(Cl)cc2)=N1 | – | – | male C57BL/6 mouse, heart | intravenous, 10 mg/kg | – | Cmax | 7720 ng/mL |
| C[C@@H](Nc1c(-c2c(F)cc(C#N)cc2F)c(Cl)nc2ncnn12)C(C)(C)C | – | ELISA | 5XFAD transgenic mice, cortex | intraperitoneal, 1 mg/kg twice weekly, 4 weeks | – | soluble Aβ42 level | decreased |
| Cc1cc(C)n(CCN(CCN)CCCCCCNC(=O)[C@@H](N)Cc2c[nH]cn2)n1.[99Tc+].[C-]#[O+].[C-]#[O+].[C-]#[O+] | – | – | BALB/c nude mice A549 xenograft | intravenous, 4 h | – | excretion | 23.1 ± 3.4 % injected activity |
| Cc1ccc(CN2C(=O)/C(=N\c3ccc(Cl)cc3Br)c3ccccc32)cc1 | – | – | mouse, blood | 100 mg/kg | – | Mon% | 2.82 ± 0.44% |
| Cc1ncsc1-c1ccc(CNC(=O)[C@@H]2C[C@@H](O)CN2C(=O)[C@@H](NC(=O)COCC(C)(COCCOCCOCCNC(=O)C[C@@H]2N=C(c3ccc(Cl)cc3)c3c(sc(C)c3C)-n3c(C)nnc32)COCCOCCOCCNC(=O)C[C@@H]2N=C(c3ccc(Cl)cc3)c3c(sc(C)c3C)-n3c(C)nnc32)C(C)(C)C)cc1 | – | – | male C57BL/6 mice, plasma | intravenous, 5 mg/kg, 2 h, sample diluted 20-fold | – | plasma concentration | 2320 ng/mL |
| Cc1nn(-c2cccc(N)c2)c(=O)c2cnc(Nc3ccc(N4CCNCC4)cc3)nc12 | Activin receptor type-1B (ACVR1B, Homo sapiens, UniProt P36896) | enzyme activity, inhibitor | – | – | – | IC50 | > 10 µM |
| CC(C)OC(=O)[C@H](CO)NCc1cc(Cl)c(OCc2cccc(-c3ccccc3)c2Br)cc1OCc1cccnc1 | – | – | hPD-L1 MC-38 tumour, humanised hPD-1 C57BL/6 mouse | oral, 2.5 mg/kg × 21, day 21 | – | body weight | 21.8 ± 1.1 g |
| CS(=O)(=O)c1ccc(-c2ccc(C3CCCCC3)cc2)cn1 | – | hepatocyte stability | cryopreserved mouse hepatocytes | 1 µM | – | hepatic clearance | 67 mL/min/kg |
| CN1CCN(c2ccc(/C=C/c3cc(=O)cc(/C=C/c4ccc(N5CCN(C)CC5)cc4)o3)cc2)CC1 | – | – | acetonitrile/water 1:19 v/v | 10 µM, 298 K, aggregate nanoparticle suspension | – | fluorescence quantum yield | 0.0005 |
| O=C(Nc1cnccc1-c1ccc([18F])cc1)c1ccnc(NC(=O)C2CC2)c1 | – | ex vivo gamma counting | GSK-3β transgenic mice, early-stage, caudate nucleus | intravenous, 120 min, together with: tariquidar 15 mg/kg iv | – | mean SUV | 0.24 |
| O=S1(=O)CC2CCCCC2CS1 (stereo not drawn) | – | phase solubility, NMR | water | 25 °C, together with: hydroxypropyl-β-cyclodextrin 614 mM | – | solubility | 70 mM (≈ 14.4 mg/mL) |
| COc1cccc(OC)c1-c1cc(C(=O)NC2(C(=O)O)C3CC4CC(C3)CC2C4)nn1-c1ccc(C(=O)N(C)CCCN(C)C(=O)[C@H](CCCCNC(=O)[C@H](CC(C)C)NC(=O)C2OC2C(=O)O)NC(=O)CN2CCN(CC(=O)[O-])CCN(CC(=O)[O-])CCN(CC(=O)[O-])CC2)cc1C(C)C.[177Lu+3] (mixture of isomers) | – | – | mouse, HT-29 xenograft | 4 h post injection, biodistribution | relative to: tumour over blood uptake | tumour-to-blood ratio | 5 |
| C=C(NC(=O)c1csc(-c2nc3c(cc2O)-c2nc(cs2)C(=O)NC(C(C)O)C(=O)NC(=C(C)OC)c2nc(cs2)C(=O)NC2c4nc(cs4)C(=O)NC(COC(=O)c4c5c6c(cccc6n4O)COC(=O)C(OC4CC(C)(O)C(N(C)C)C(C)O4)C2OC5)c2nc-3cs2)n1)C(N)=O (stereo not drawn) | – | – | female Sprague-Dawley rats, plasma | intravenous infusion, 6 mg/kg | – | AUC(0-inf) | 2360 ng·h/mL |
| N=C(N)NCCC[C@@H]1NC(=O)[C@H](CCCNC(=N)N)NC(=O)[C@H](CCCNC(=N)N)NC(=O)[C@H](CCCNC(=N)N)NC(=O)[C@H](Cc2ccc3ccccc3c2)NC(=O)[C@H](Cc2ccccc2)NC(=O)CCSSC[C@@H](C(=O)N[C@@H](CCCCNC(=S)Nc2ccc3c(c2)C(=O)OC32c3ccc(O)cc3Oc3cc(O)ccc32)C(N)=O)NC1=O | – | chemical stability | human, serum | – | – | half-life | ~6 h |
| O=C(CC(F)(F)F)Nc1ccc([C@H]2[C@@H](F)[C@@H](F)C[C@@H](F)[C@H]2F)cc1 | – | hepatocyte stability | cryopreserved rat hepatocytes | 1 µM | – | hepatic clearance | 31 mL/min/kg |

Excerpt of the above:
| SMILES | tested on | test | test system | conditions | how to read | endpoint | value |
| --- | --- | --- | --- | --- | --- | --- | --- |
| CN1CCC(c2ccc(-c3ccc([C@H]4[C@@H](F)[C@@H](F)C[C@@H](F)[C@H]4F)cc3)cn2)CC1 | – | hepatocyte stability | cryopreserved mouse hepatocytes | 1 µM | – | hepatic clearance | 45 mL/min/kg |
| CCC1CNC(CC)CN(C(C(=O)[O-])c2ccc(C(=O)[O-])cc2)C(CC)CN(CC(=O)[O-])C(CC)CN1.[Mn+2] (stereo not drawn) | – | ICP-MS | BALB/c mouse, intestine | intravenous, 0.05 mmol/kg, 5 min, without anaesthesia | – | Mn content | 19.7 ± 3.81 µg/g |
| O=C(CN1CCCCC1)Nc1ccc(C2CCCCC2)cc1 | – | – | cynomolgus liver microsomes | 1 µM | – | hepatic clearance | 39 mL/min/kg |
